Results gathered from unrelated publications.
Compare with care: the assays were run in different laboratories. ± marks the error that the study gave.
U2AF2: U2AF2 148-342 (Homo sapiens, UniProt P26368)
Chain of UniProt P26368 (whole entry, looked up): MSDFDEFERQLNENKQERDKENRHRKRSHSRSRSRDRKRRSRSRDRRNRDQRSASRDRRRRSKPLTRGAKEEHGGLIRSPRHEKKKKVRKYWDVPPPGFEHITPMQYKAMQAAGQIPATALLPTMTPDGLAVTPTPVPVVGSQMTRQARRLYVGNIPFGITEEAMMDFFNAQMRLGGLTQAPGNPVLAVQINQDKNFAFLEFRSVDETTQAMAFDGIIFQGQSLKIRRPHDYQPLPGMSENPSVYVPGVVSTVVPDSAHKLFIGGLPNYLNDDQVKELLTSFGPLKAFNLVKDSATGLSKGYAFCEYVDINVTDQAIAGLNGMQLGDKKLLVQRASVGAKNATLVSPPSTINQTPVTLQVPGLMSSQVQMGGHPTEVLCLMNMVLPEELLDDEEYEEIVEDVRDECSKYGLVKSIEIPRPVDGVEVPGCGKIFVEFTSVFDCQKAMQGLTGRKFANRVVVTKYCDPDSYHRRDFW
B1: TAF15 7-99 del58-72 (Homo sapiens, UniProt Q92804); sequence looked up; chain YGQSGGEQQSYSTYGNPGSQGYGQASQSYSGYGQTTDSSYGQNYSGYSSYGQKQSSYSQQPYNNQGQQQNMESSGSQG
B2: SPOP E47Q (Homo sapiens, UniProt O43791); sequence looked up; chain MSRVPSPPPPAEMSSGPVAESWCYTQIKVVKFSYMWTINNFSFCREQMGEVIKSSTFSSGANDKLKWCLRVNPKGLDEESKDYLSLYLLLVSCPKSEVRAKFKFSILNAKGEETKAMESQRAYRFVQGKDWGFKKFIRRDFLLDEANGLLPDDKLTLFCEVSVVQDSVNISGQNTMNMVKVPECRLADELGGLWENSRFTDCCLCVAGQEFQAHKAILAARSPVFSAMFEHEMEESKKNRVEINDVEPEVFKEMMCFIYTGKAPNLDKMADDLLAAADKYALERLKVMCEDALCSNLSVENAAEILILADLHSADQLKTQAVDFINYHASDVLETSGWKSMVVSHPHLVAEAYRSLASAQCPFLGPPRKRLKQS
B3: Gm4951 Q183A/D185A (Mus musculus, UniProt Q3UED7); sequence looked up; chain MGQLFSSRRSEDQDLSSSFIEYLKECEKGINIIPHEIITSIEINMKKGNIQEVNSTVRDMLREIDNTPLNVALTGETGSGKSSFINTLRGIGHEEGGAAHTGVTDKTKERHPYEHPKMPNVVFWDLPGTGSEDFQPKTYLEKMKFYEYDFFIIISATRFKKNDIDLAKAIGIMKKEFYFVRTAVASDLRNEEDFKPQTFDREKVLQDIRLNCVNTFRENGIAEPPIFLISNKNVCHYDFPVLMDKLISDLPVFKRQNFMFSLPNITDSVIEKKRNFLRWKTWLEGFADGLLSFFLESDLETLEKSMKFYRTVFGVDDASLQRLARAWEIDQVDQVRAMIKSPAVFTPTDEETIQERLSRYNQEFCLANGYLLPKNHCREILYLKLYFLDMVTEDAKTLLKEICLRN
B4: VANGL1 H340A/Y345A/E349A (Homo sapiens, UniProt Q8TAA9-1); sequence looked up; chain MDTESTYSGYSYYSSHSKKSHRQGERTRERHKSPRNKDGRGSEKSVTIQPPTGEPLLGNDSTRTEEVQDDNWGETTTAITGTSEHSISQEDIARISKDMEDSVGLDCKRYLGLTVASFLGLLVFLTPIAFILLPPILWRDELEPCGTICEGLFISMAFKLLILLIGTWALFFRKRRADMPRVFVFRALLLVLIFLFVVSYWLFYGVRILDSRDRNYQGIVQYAVSLVDALLFIHYLAIVLLELRQLQPMFTLQVVRSTDGESRFYSLGHLSIQRAALVVLENYYKDFTIYNPNLLTASKFRAAKHMAGLKVYNVDGPSNNATGQSRAMIAAAARRRDSSANELYAEEAAHERRVKKRKARLVVAVEEAFIHIQRLQAEEQQKAPGEVMDPREAAQAIFPSMARALQKYLRITRQQNYHSMESILQHLAFCITNGMTPKAFLERYLSAGPTLQYDKDRWLSTQWRLVSDEAVTNGLRDGIVFVLKCLDFSLVVNVKKIPFIILSEEFIDPKSHKFVLRLQSETSV
B5: dlg1 1-97 R39A/K42A (Drosophila melanogaster, UniProt P31007); sequence looked up; chain MPVKKQEAHRALELLEDYHARLSEPQDRALRIAIERVIAIFASRLFQALLDIQEFYELTLLDDSKSIQQKTAETLQIATKWEKDGQAVKIADFIKSS
B6: POL30 1-258 (Saccharomyces cerevisiae, UniProt P15873); chain MLEAKFEEASLFKRIIDGFKDCVQLVNFQCKEDGIIAQAVDDSRVLLVSLEIGVEAFQEYRCDHPVTLGMDLTSLSKILRCGNNTDTLTLIADNTPDSIILLFEDTKKDRIAEYSLKLMDIDADFLKIEELQYDSTLSLPSSEFSKIVRDLSQLSDSINIMITKETIKFVADGDIGSGSVIIKPFVDMEHPETSIKLEMDQPVDLTFGAKYLLDIIKGSSLSDRVGIRLSSEAPALFQFDLKSGFLQFFLAPKFNDEE
B7: OAC1 (Saccharomyces cerevisiae, UniProt P32332); sequence looked up; chain MSSDNSKQDKQIEKTAAQKISKFGSFVAGGLAACIAVTVTNPIELIKIRMQLQGEMSASAAKVYKNPIQGMAVIFKNEGIKGLQKGLNAAYIYQIGLNGSRLGFYEPIRSSLNQLFFPDQEPHKVQSVGVNVFSGAASGIIGAVIGSPLFLVKTRLQSYSEFIKIGEQTHYTGVWNGLVTIFKTEGVKGLFRGIDAAILRTGAGSSVQLPIYNTAKNILVKNDLMKDGPALHLTASTISGLGVAVVMNPWDVILTRIYNQKGDLYKGPIDCLVKTVRIEGVTALYKGFAAQVFRIAPHTIMCLTFMEQTMKLVYSIESRVLGHN
B8: CGAS 1-157 (Homo sapiens, UniProt Q8N884); chain MQPWHGKAMQRASEAGATAPKASARNARGAPMDPTESPAAPEAALPKAGKFGPARKSGSRQKKSAPDTQERPPVRATGARAKKAPQRAQDTQPSDATSAPGAEGLEPPAAREPALSRAGSCRQRGARCSTKPRPPPGPWDVPSPGLPVSAPILVRRD
B9: dszC S163A (Rhodococcus erythropolis, UniProt P54998); sequence looked up; chain MTLSPEKQHVRPRDAADNDPVAVARGLAEKWRATAVERDRAGGSATAEREDLRASGLLSLLVPREYGGWGADWPTAIEVVREIAAADGSLGHLFGYHLTNAPMIELIGSQEQEEHLYTQIAQNNWWTGNASSENNSHVLDWKVSATPTEDGGYVLNGTKHFCAGAKGSDLLFVFGVVQDDSPQQGAIIAAAIPTSRAGVTPNDDWAAIGMRQTDSGSTDFHNVKVEPDEVLGAPNAFVLAFIQSERGSLFAPIAQLIFANVYLGIAHGALDAAREYTRTQARPWTPAGIQQATEDPYTIRSYGEFTIALQGADAAAREAAHLLQTVWDKGDALTPEDRGELMVKVSGVKALATNAALNISSGVFEVIGARGTHPRYGFDRFWRNVRTHSLHDPVSYKIADVGKHTLNGQYPIPGFTS
B10: SPOP R221C (Homo sapiens, UniProt O43791); sequence looked up; chain MSRVPSPPPPAEMSSGPVAESWCYTQIKVVKFSYMWTINNFSFCREEMGEVIKSSTFSSGANDKLKWCLRVNPKGLDEESKDYLSLYLLLVSCPKSEVRAKFKFSILNAKGEETKAMESQRAYRFVQGKDWGFKKFIRRDFLLDEANGLLPDDKLTLFCEVSVVQDSVNISGQNTMNMVKVPECRLADELGGLWENSRFTDCCLCVAGQEFQAHKAILAACSPVFSAMFEHEMEESKKNRVEINDVEPEVFKEMMCFIYTGKAPNLDKMADDLLAAADKYALERLKVMCEDALCSNLSVENAAEILILADLHSADQLKTQAVDFINYHASDVLETSGWKSMVVSHPHLVAEAYRSLASAQCPFLGPPRKRLKQS
B11: IL2 mature F44A (Bos taurus, UniProt P05016); sequence looked up; chain APTSSSTGNTMKEVKSLLLDLQLLLEKVKNPENLKLSRMHTFDAYVPKVNATELKHLKCLLEELKLLEEVLNLAPSKNLNPREIKDSMDNIKRIVLELQGSETRFTCEYDDATVNAVEFLNKWITFCQSIYSTMT
B12: human CAP1; sequence looked up; chain ADMQNLVERLERAVGRLEAVSHTSDMHRGYADSPSKAGAAPYVQAFDSLLAGPVAEYLKISKEIGGDVQKHAEMVHTGLKLERALLVTASQCQQPAENKLSDLLAPISEQIKEVITFREKNRGSKLFNHLSAVSESIQALGWVAMAPKPGPYVKEMNDAAMFYTNRVLKEYKDVDKKHVDWVKAYLSIWTELQAYIKEFHTTGLAWSKTGPVAKELSGLPSGPSAGSCPPPPPPCPPPPPVSTISCSYESASRSSLFAQINQGESITHALKHVSDDMKTHKNPALKAQSGPVRSGPKPFSAPKPQTSPSPKRATKKEPAVLELEGKKWRVENQENVSNLVIEDTELKQVAYIYKCVNTTLQIKGKINSITVDNCKKLGLVFDDVVGIVEIINSKDVKVQVMGKVPTISINKTDGCHAYLSKNSLDCEIVSAKSSEMNVLIPTEGGDFNEFPVPEQFKTLWNGQKLVTTVTEIAG
B13: NINJ2 Q103F (Homo sapiens, UniProt Q9NZG7); sequence looked up; chain MESARENIDLQPGSSDPRSQPINLNHYATKKSVAESMLDVALFMSNAMRLKAVLEQGPSSHYYTTLVTLISLSLLLQVVIGVLLVVIARLNLNEVEKQWRLNFLNNAATILVFFTVVINVFITAFGAHKTGFLAARASRNPL
Chain of UniProt O15523 (whole entry, looked up): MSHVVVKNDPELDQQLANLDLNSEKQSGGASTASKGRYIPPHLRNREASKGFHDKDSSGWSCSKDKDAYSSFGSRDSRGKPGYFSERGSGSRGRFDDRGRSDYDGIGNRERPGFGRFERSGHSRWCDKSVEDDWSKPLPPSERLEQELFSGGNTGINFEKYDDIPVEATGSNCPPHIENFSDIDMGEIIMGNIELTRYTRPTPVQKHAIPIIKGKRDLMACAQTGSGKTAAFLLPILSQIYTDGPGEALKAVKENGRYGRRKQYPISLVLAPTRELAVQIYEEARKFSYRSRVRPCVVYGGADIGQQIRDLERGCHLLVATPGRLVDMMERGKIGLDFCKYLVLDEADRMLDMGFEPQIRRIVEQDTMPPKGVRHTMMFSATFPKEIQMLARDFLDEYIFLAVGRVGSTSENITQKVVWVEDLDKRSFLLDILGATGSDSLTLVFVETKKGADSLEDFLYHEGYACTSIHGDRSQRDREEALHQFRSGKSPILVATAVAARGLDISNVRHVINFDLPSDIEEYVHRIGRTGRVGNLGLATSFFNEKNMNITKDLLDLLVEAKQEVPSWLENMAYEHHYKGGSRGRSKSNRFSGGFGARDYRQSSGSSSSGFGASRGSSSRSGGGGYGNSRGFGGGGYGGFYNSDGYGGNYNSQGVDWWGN
Chain of UniProt P13393 (whole entry, looked up): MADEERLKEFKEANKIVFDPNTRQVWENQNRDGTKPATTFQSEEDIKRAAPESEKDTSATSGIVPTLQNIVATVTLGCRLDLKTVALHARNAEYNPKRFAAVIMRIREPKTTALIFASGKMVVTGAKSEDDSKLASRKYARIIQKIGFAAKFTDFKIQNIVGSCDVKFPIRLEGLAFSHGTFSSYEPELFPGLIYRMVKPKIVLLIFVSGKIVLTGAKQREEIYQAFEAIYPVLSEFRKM
Chain of UniProt O94687 (whole entry, looked up): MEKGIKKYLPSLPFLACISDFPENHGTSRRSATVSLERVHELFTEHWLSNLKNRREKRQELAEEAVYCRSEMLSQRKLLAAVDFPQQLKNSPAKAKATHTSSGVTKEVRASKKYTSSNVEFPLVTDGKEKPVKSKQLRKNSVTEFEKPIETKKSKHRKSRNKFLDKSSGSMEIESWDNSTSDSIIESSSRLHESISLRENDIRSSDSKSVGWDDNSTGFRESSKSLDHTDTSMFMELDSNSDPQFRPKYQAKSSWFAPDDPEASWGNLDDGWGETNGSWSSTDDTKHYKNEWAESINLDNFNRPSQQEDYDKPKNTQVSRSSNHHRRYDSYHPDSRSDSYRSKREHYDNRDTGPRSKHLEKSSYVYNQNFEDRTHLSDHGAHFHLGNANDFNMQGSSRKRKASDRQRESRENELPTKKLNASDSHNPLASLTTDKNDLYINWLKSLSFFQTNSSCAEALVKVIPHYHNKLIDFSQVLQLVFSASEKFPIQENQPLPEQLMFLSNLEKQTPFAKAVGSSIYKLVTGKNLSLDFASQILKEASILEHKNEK

adrenomedullin  retention time (RP-HPLC; HALO Phenyl-hexyl column; 25 µM, formic acid/methanol, 10 min gradient): 8.58 min
B1 (TAF15 7-99 del58-72)  binding (itself; ThT fluorescence, negative-stain TEM; peptide): binds
B2 (SPOP E47Q)  binding (itself; negative-stain TEM): binds
B3 (Gm4951 Q183A/D185A)  binding (itself; mass photometry): binds
B4 (VANGL1 H340A/Y345A/E349A)  binding (itself; native gel or EMSA): binds
MDKVQYLTRSAIRRASTIEMPQQARQNLQNLFINFCLILICLLLICIIVMLL (PLN (Sus scrofa, UniProt P61013); sequence looked up)  binding (itself; immunoblot SDS-PAGE): binds
GUUGUAUAU (ssRNA)  Kd (U2AF2; sequencing of bound RNA; RNA; motif only): 7600 nM
tas3 (Schizosaccharomyces pombe, UniProt O94687)  binding (itself; cross-linking): binds
DDX3Y (Homo sapiens, UniProt O15523)  binding (itself; mass photometry): binds
B5 (dlg1 1-97 R39A/K42A)  binding (itself; SEC): binds
human ME2 D102S  Hill coefficient (enzyme activity, NADH absorbance; with fumarate 3 mM, added: L-malate varied): 1.05 ± 0.04
UAUUUUGGC (ssRNA)  Kd (U2AF2; sequencing of bound RNA; RNA; motif only): 1150 nM
B6 (POL30 1-258)  binding (itself; cryo-EM): binds
B7 (OAC1)  binding (itself; pull-down): binds
B8 (CGAS 1-157)  binding (itself; NMR titration): binds
B9 (dszC S163A)  binding (itself; SEC): binds
insulin degludec  AUC0−12 (human; subcutaneous, 0.4 IU/kg, 2 FC level, single dose, reference formulation): 128 ± 33 ng·h/mL
B10 (SPOP R221C)  binding (itself; negative-stain TEM): binds
B11 (IL2 mature F44A)  binding (itself; SDS-PAGE): binds
B12 (human CAP1)  log2 fold change (CYB5R4 knockout human cells; PP4 interaction, 3xFLAG-PP4C IP-MS; concentration not given; relative to: CYB5R4 KO over parental): -0.33
CTCAGGAATTCCCATAAAGTAATGTGGAGCTCAGTTCAAGTCAATCGGTCC (dsDNA; 5'-amino-C6 primer)  Kd (SPT15 full length assumed (Saccharomyces cerevisiae, UniProt P13393); array; double-stranded DNA, one strand shown; TBP alone): 19.4 ± 1.65 nM
B13 (NINJ2 Q103F)  binding (itself; negative-stain EM): binds

Excerpt of the above:
CTCAGGAATTCCCATAAAGTAATGTGGAGCTCAGTTCAAGTCAATCGGTCC (dsDNA; 5'-amino-C6 primer)  Kd (SPT15 full length assumed (Saccharomyces cerevisiae, UniProt P13393); array; double-stranded DNA, one strand shown; TBP alone): 19.4 ± 1.65 nM
B13 (NINJ2 Q103F)  binding (itself; negative-stain EM): binds
